Measured values from different studies.
A part holds a random share of what one study measured. Substitutions count along the parent as printed.
Chain of UniProt P35367 (whole entry, looked up): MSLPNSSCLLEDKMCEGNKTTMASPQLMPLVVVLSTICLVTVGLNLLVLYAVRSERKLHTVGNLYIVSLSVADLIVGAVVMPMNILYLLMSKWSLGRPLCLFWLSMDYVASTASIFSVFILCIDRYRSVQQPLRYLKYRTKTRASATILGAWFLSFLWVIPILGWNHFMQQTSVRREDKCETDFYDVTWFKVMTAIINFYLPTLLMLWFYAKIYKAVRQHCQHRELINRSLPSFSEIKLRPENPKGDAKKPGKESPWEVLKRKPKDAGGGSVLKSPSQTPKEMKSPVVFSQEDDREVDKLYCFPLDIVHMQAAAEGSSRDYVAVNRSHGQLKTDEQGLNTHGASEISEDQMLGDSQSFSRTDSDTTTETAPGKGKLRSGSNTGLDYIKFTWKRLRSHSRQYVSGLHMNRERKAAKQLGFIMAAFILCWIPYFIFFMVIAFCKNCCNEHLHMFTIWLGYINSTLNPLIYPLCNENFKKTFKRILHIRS
Chain of UniProt P21917 (whole entry, looked up): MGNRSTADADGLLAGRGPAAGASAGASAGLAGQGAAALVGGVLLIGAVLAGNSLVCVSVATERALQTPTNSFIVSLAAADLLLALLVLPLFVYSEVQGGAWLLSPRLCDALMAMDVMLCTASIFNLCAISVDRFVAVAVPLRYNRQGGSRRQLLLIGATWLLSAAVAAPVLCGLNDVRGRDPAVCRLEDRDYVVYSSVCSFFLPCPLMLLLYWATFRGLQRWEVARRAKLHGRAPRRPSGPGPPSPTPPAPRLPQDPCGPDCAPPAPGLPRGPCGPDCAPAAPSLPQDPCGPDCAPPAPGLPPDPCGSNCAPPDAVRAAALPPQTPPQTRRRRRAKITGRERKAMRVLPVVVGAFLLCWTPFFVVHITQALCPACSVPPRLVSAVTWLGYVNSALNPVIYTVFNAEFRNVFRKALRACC
Chain of UniProt P18825 (whole entry, looked up): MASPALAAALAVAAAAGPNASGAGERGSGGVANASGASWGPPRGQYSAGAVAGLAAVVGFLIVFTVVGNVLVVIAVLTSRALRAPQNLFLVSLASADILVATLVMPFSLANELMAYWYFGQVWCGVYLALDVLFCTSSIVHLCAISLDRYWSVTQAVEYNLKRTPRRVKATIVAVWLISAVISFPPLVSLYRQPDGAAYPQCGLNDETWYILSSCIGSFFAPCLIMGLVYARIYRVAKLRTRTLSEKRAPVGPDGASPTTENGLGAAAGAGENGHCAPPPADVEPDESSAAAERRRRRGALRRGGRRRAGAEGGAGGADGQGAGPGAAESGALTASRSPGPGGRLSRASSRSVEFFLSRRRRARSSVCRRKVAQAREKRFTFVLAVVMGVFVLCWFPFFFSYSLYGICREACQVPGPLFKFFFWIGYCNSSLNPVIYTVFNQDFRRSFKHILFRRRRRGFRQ
Chain of UniProt P50406 (whole entry, looked up): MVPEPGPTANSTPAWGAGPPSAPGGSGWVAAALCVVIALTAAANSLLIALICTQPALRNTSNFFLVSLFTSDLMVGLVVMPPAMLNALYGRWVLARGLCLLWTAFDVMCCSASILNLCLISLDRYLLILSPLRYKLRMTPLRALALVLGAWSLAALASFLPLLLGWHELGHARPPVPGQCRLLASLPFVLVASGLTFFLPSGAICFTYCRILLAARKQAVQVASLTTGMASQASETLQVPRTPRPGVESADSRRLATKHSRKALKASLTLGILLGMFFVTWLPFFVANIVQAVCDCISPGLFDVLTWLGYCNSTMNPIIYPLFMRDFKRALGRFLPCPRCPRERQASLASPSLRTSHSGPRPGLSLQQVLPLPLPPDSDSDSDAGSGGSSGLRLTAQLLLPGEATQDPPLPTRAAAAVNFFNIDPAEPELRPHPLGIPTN
Chain of UniProt Q9H3N8 (whole entry, looked up): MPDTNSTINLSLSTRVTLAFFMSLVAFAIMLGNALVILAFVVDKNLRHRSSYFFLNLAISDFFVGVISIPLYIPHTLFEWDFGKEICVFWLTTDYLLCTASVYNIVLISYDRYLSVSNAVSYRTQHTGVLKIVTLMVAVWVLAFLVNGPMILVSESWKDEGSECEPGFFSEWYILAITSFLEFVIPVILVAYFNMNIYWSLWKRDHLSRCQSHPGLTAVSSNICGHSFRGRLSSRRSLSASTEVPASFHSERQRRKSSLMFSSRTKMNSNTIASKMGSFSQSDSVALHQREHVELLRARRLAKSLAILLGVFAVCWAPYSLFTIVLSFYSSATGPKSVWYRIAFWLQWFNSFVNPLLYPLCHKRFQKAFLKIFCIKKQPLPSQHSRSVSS
Chain of UniProt P08913 (whole entry, looked up): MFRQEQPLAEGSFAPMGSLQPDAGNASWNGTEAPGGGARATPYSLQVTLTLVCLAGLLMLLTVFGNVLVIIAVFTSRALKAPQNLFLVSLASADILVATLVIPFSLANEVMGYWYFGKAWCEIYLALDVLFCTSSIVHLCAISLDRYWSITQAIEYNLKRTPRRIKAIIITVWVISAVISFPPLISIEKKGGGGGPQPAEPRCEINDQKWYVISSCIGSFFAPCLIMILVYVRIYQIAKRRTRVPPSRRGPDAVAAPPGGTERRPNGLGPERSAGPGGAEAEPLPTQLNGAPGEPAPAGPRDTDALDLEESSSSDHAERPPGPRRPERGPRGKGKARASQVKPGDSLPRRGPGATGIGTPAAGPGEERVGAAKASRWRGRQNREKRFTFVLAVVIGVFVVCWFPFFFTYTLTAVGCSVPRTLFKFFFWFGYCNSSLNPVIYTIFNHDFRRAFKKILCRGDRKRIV

Set 1 — technique: DHFR PCA, dose-response; sample: yeast; together with: (+)-ABA, dose series; reading: lower = more sensitive; endpoint: ABA EC50
Target: ABI1, truncated, D143A, DHFR fusion (Arabidopsis thaliana, UniProt P49597)
Setting: Hill fit, not affinity, not high confidence
Starting sequence: PYL1, truncated, DHFR fusion (Arabidopsis thaliana, UniProt Q8VZS8); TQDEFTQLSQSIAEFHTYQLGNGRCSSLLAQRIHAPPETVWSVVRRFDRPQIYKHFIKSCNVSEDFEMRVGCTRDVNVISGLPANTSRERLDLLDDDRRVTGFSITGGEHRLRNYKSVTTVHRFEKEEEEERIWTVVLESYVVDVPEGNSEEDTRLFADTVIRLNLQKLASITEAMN
R45F: 840 µM
V76K: 1390 µM
V78M: 78.1 µM
S117N: 16.8 µM
V40R: 60.7 µM
I105Q: 10.8 µM
L169E: 287 µM
F47Q: 32.7 µM

Set 2 — effect on: ligand displacement; tested at: 10 µM; endpoint: inhibition
SMILES: O=C(NCc1ncc(C(F)(F)F)cc1Cl)c1ccc2c(c1)C1(CCS(=O)(=O)CC1)[C@@H](C1CC1)N2S(=O)(=O)c1ccc(F)cc1
Alpha-2A adrenergic receptor (ADRA2A, Homo sapiens, UniProt P08913): 6.57%
5-hydroxytryptamine receptor 6 (HTR6, Homo sapiens, UniProt P50406): -11.2%
Histamine H1 receptor (HRH1, Homo sapiens, UniProt P35367): 8.01%
Alpha-2C adrenergic receptor (ADRA2C, Homo sapiens, UniProt P18825): 15.7%
D(4) dopamine receptor (DRD4, Homo sapiens, UniProt P21917): -5.22%
Histamine H4 receptor (HRH4, Homo sapiens, UniProt Q9H3N8): -6.68%

Set 3 — technique: competition protein-binding microarray; molecule type: double-stranded DNA, one strand shown; sample: in vitro; tested at: 2 µM; together with: Cbf1 competitor, 0.05 µM; reading: higher = stronger binding; endpoint: fluorescence intensity; all sequences stand within: … GTCTTGATTCGCTTGACGCTGCTG
Target: Phosphate system positive regulatory protein PHO4, full length, GST-tagged (PHO4, Saccharomyces cerevisiae, UniProt P07270, residues 1-312)
Setting: whole 60-bp probe, lowest competitor level
Target sequence (chain): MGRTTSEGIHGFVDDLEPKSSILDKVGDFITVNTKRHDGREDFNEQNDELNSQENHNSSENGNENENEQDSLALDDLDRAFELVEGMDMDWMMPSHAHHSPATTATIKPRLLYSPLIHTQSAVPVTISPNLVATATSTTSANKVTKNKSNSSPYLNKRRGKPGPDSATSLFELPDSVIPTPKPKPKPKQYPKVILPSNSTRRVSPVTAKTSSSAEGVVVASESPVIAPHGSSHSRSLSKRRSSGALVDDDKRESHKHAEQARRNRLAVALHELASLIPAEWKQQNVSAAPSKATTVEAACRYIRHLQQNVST
TGGAGCCCGCAGCGTCACATGGCGTCTGGGGGCTTG: 6480 a.u.
CTAACGAAGGTTTGTCACCGTACTTACAAGCCAAGT: 3120 a.u.
GTCCCATTCAATGAGCACATGCCTTGTGTAGTTTTG: 13600 a.u.
CCATACGTTTACGTAGGCGTGCTTTTTTCAAAGAGT: 9400 a.u.
AAACACTTCCACCTACACGTGAGAGCCAAAGCCATA: 14700 a.u.
CGTATACATAGGCATTGCGTGTTGAAAAATTGTCGG: 7260 a.u.
TTGTCTCATATTACCCACGTGGAAGGCGCCCAACAT: 18500 a.u.
CTTCTGTAAATTTGGGACGTGGGTGGACGCGCCCCG: 6400 a.u.

Set 4 — effect on: enzyme activity; mode: inhibitor; tested at: 0.5 µM; reference: control; endpoint: remaining activity
Target: Myotonin-protein kinase (DMPK, Homo sapiens, UniProt Q09013)
Residues (Q09013 1-629): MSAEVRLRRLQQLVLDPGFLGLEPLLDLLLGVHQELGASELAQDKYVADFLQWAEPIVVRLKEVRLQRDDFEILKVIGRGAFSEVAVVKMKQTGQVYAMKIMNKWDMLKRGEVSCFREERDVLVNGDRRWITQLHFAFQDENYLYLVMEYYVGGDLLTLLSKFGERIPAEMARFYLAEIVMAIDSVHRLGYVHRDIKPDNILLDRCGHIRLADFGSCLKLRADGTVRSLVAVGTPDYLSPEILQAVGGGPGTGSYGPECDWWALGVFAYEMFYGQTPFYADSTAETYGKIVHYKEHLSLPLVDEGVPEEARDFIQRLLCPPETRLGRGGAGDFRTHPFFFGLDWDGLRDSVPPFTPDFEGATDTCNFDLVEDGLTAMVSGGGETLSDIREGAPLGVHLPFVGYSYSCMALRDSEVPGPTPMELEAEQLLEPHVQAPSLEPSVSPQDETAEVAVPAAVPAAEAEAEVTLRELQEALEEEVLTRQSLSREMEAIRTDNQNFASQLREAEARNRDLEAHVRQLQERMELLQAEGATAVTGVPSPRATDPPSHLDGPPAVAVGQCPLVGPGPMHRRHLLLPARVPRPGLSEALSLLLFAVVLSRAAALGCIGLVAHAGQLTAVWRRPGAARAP
Cc1ccc(NC(=O)c2ccc(CN3CCN(C)CC3)cc2)cc1Nc1nc(-c2cccnc2)cs1: 104%
Nc1ncnc2n[nH]c(Nc3ccc(F)cc3)c12: 114%
COc1cc2ncnc(Nc3ccc(Oc4ccccc4)cc3)c2cc1OC: 106%
O=c1c2ccccc2[nH]c(=S)n1CCN1CCC(=C(c2ccc(F)cc2)c2ccc(F)cc2)CC1: 108%
OCC(O)CCON=C1C(c2c(O)[nH]c3ccccc23)=Nc2ccccc21 (stereo not shown): 99.5%
Cc1nc(-c2ccccc2)c(-c2ccncc2)o1: 103%

For quick reference, copied from above (set 4):
Nc1ncnc2n[nH]c(Nc3ccc(F)cc3)c12: 114%
COc1cc2ncnc(Nc3ccc(Oc4ccccc4)cc3)c2cc1OC: 106%
O=c1c2ccccc2[nH]c(=S)n1CCN1CCC(=C(c2ccc(F)cc2)c2ccc(F)cc2)CC1: 108%
